Experimental data collected from several papers.
Protocols differ between the studies behind these lines. “And” joins repeats or separate records; there may be more than shown. ± marks the error that the study gave.
GBA2: Beta-glucosidase (GBA2, Homo sapiens, UniProt Q9HCG7)
Chain of UniProt Q9HCG7 (whole entry, looked up): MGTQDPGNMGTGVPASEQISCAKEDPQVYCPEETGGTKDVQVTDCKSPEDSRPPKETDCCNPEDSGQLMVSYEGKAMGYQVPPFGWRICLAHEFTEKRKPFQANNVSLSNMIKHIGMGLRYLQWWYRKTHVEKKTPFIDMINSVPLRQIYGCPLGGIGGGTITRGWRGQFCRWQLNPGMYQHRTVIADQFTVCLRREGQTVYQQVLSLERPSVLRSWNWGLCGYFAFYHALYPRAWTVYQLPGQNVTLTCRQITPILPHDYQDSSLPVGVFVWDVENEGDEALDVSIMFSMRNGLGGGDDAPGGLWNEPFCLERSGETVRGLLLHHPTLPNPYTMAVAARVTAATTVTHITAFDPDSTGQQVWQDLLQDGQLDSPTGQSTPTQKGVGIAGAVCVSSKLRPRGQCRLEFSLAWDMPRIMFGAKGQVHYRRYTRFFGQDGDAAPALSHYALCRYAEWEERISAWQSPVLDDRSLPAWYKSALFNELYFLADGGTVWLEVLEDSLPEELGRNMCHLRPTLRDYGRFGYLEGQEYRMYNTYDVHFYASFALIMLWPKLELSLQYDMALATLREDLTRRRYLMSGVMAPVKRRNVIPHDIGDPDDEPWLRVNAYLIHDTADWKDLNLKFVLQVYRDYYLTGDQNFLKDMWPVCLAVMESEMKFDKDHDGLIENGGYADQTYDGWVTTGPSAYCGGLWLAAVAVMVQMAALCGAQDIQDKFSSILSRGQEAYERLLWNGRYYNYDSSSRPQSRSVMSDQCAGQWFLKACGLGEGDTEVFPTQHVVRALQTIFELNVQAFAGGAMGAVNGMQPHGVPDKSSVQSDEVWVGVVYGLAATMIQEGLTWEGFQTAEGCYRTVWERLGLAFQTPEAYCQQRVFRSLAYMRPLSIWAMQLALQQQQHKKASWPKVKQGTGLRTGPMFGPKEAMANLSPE
Chain of UniProt P05177 (whole entry, looked up): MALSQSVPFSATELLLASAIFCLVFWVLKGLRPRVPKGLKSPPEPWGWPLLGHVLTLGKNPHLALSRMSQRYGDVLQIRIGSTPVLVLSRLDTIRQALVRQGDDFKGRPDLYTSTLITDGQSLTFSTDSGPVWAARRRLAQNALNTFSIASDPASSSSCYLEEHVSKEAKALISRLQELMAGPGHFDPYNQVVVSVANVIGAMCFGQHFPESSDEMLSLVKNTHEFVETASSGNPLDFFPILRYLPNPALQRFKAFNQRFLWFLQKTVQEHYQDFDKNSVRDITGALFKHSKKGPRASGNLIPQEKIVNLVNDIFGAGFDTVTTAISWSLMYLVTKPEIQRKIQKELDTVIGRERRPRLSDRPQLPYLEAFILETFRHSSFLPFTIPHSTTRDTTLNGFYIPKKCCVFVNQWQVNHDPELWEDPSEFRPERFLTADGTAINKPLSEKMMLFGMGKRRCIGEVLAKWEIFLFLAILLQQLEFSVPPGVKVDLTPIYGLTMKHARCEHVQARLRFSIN

Compound	target or system	test	system	setting	scale	measurement	value
CC(C)OCCOCc1ccc(OCC(O)CN(N=O)C(C)C)cc1 (centres unmarked)	Salmonella typhimurium	Ames test	TA100	158 µg/plate, 30 % rat S9	relative to: solvent control	revertant fold increase	1 fold
O=C1NC2(CC2)COc2ncc(F)cc2[C@H]2COCCN2c2ccn3ncc1c3n2	Salmonella typhimurium	Ames test	TA98	150 µg/plate, 48 h, with: rat liver S9		revertant colonies	21 ± 3 revertants/plate
CC[C@H](C)[C@H](NC(=O)C[C@H](NC(=O)CN1CCN2CCN(CC1)CC(=O)[O][Al]([18F])[O]C(=O)C2)C(=O)O)C(=O)N[C@H]1CCc2cccc3c2N(C1=O)[C@H](C(=O)NCc1cn[nH]n1)C3	MC-38 tumour model		host not given, brain	30 min, tumour-bearing		tracer uptake	0.16 %ID/g
O=C1C2CC3CC1CC(C(=O)N1CCN(c4ccc([N+](=O)[O-])c5ncccc45)CC1)(C3)C2	Salmonella typhimurium	Ames test	TA100	0.31 µg/well, with S9		mean revertant colonies	31 colonies/well
CNC(=O)C1CCCN(C(=O)C2CC3CCC2N3C(=O)[C@@H]2C[C@@H](O)CN2C(=O)NCc2cccc(Cl)c2F)C1 (mixture of isomers)	Cytochrome P450 1A2 (CYP1A2, Homo sapiens, UniProt P05177)	enzyme activity, inhibitor	human, liver microsomes			IC50	> 50000 nM
OC[C@H]1N[C@H](CCCCCCOCC23CC4CC(CC(C4)C2)C3)[C@H](O)[C@@H](O)[C@@H]1O	GBA2	inhibitor, 4MU-β-D-glucopyranoside	HEK293T homogenates overexpressing GBA2			IC50	34 nM
COCC1CN(C2CCN(c3cc(OC)c(Nc4ncc(Br)c(Nc5ccc6c(c5P(C)(C)=O)OCCO6)n4)cc3C)CC2)C1			EGFR-mutant NSCLC patients, plasma	oral, 60 mg multiple doses, geometric mean		Cmin	438 ng/mL
CCN(CC)CC#CCNc1ccnc2cc(Cl)ccc12	Salmonella typhimurium	mini-Ames test	TA97a	125.0 µg/well, without S9		revertants	5 revertants/well and 4 revertants/well
OC[C@@H]1[C@@H](O)[C@H](O)[C@@H](O)CN1CCCCCOCc1ccc(-c2ccc(F)nc2)cc1	GBA2	inhibitor, 4MU-β-D-glucopyranoside	HEK293T homogenates overexpressing GBA2		relative to: GCS IC50 over GBA2 IC50	selectivity ratio	150
C=C(NC(=O)c1csc(-c2nc3c(cc2O)-c2nc(cs2)C(=O)NC(C(C)O)C(=O)NC(=C(C)OC)c2nc(cs2)C(=O)NC2c4nc(cs4)C(=O)NC(COC(=O)c4c5c6c(cccc6n4O)COC(=O)C(OC4CC(C)(O)C(N(C)C)C(C)O4)C2OC5)c2nc-3cs2)n1)C(N)=O (centres unmarked)			ICR mice, Streptococcus pneumoniae ATCC 49169 infected, immunocompromised, blood	intravenous, 2 mg/kg/day once daily		AUC(0-inf)	59.8 ng·h/mL
COC1CN([C@H]2CC[C@H]([C@@]3(C)Oc4c(Cl)cc(C(=O)NCc5c(SC)cc(C)[nH]c5=O)c(C)c4O3)CC2)C1		RNA-seq, measured: SERPINI1	human, whole blood	dose not given, 24 h	relative to: pretreatment baseline	log2 fold change	1.39

A few entries again:
Compound	target or system	test	system	setting	scale	measurement	value
O=C1NC2(CC2)COc2ncc(F)cc2[C@H]2COCCN2c2ccn3ncc1c3n2	Salmonella typhimurium	Ames test	TA98	150 µg/plate, 48 h, with: rat liver S9		revertant colonies	21 ± 3 revertants/plate
